Experimental data of several laboratories.
Values joined by “and” are separate records of one study, mostly repeats; a detail may differ. ± marks the error that the study gave.

CN1CC(Oc2cnc(C#N)cc2-c2ccn3nc(NC(=O)C4CC4)cc3c2)C1
clearance (rat, Sprague-Dawley, male, plasma; intravenous, 1 mg/kg): 59 mL/min/kg

COc1cc(-c2cc(C(C)=O)n3ccccc23)c(OC)cc1Cn1ccnc1
clearance (Sprague-Dawley rat, male, plasma; oral, 5 mg/kg): 40.2 mL/min/kg

N#C[C@@]12C[C@@H]1[C@@H](n1cnc3c(N[C@@H](C4CCC4)C4CC4)nc(I)nc31)[C@H](O)[C@@H]2O
clearance (Wistar rats male, plasma; oral, 3.0 mg/kg): 475 mL/min/kg

O=C1C[C@@H](c2ccc(O)cc2)Oc2cc(O)cc(O)c21
clearance (Sprague-Dawley rat, plasma; intravenous bolus, 1 mg/kg): 7.17 ± 1.2 mL/min

C[C@H]1Oc2cc(cnc2N)-c2c(nn(C)c2C#N)CN(C)C(=O)c2ccc(F)cc21
clearance (population PK; patients with moderate renal impairment, plasma; oral, 100 mg, mean, single dose): 119 mL/min

CNC(=O)c1cccc(-c2ccc(O[C@H]3O[C@H](CO)[C@@H](O)[C@H](O)[C@@H]3O)c(C)c2)c1
clearance (Sprague-Dawley rat, male, plasma; intravenous, 3 mg/kg): 104 mL/min/kg and 80.8 mL/min/kg and 110 mL/min/kg

CC(C)(N)COCC(=O)N1CCC[C@H](C(=O)NCc2nc(-c3ccc(C(F)(F)F)cc3)cs2)C1
clearance (Sprague-Dawley rat, male, plasma; intravenous, 1 mg/kg): 19 mL/min/kg

Cc1ccc(S(=O)(=O)n2cc3c4c2C(=O)C(NCc2ccc(Cl)cc2)=CC4=NCC3)cc1
clearance (Sprague-Dawley rat, plasma; intravenous, 5 mg/kg, two-compartment model): 0.0333 mL/min/kg and 0.05 mL/min/kg

COc1cc2c3c(n(CCCN4CCOCC4)c(=O)c2cc1OC)-c1cc2c(cc1C3=O)OCO2
clearance (Fischer 344 rats, male; intravenous bolus, 24 mg/m^2): 56 L/h/m²

Cc1cccc(CNC(=O)c2cn(CCNC(=O)c3ccccc3Sc3c([N+](=O)[O-])ncn3C)c3cc4c(cc3c2=O)OC(F)(F)O4)n1
clearance (Sprague-Dawley rat, male, whole blood; intravenous, 5 mg/kg): 1170 ± 103 mL/min/kg

CCCC(CCC)NC(=O)c1ccc2c(c1)OCO2
clearance (Sprague-Dawley rat, female, plasma; intravenous, 1 mg/kg): 47.2 mL/min/kg

COCC(=O)N1CCC[C@H](C(=O)NCc2nc(-c3ccc(C#N)cc3)cs2)C1
clearance (Sprague-Dawley rat, male, plasma; intravenous, 1 mg/kg): 0.62 mL/min/kg

N=C(N)NCCNC(=O)C1(Nc2ccccc2)CCN(Cc2ccccc2)CC1
clearance (Sprague-Dawley rats (female), plasma; oral, 50 mg/kg): 18.3 ± 5 mL/min

Clc1ccc(-c2csc(NN=C3CCCC3)n2)cc1
viability (OCI-Ly1; 1 µM, 120 h): 88%

CCONC(=O)N1CCC[C@H](C(=O)NCc2nc(-c3ccc(C#N)cc3)cs2)C1
clearance (Sprague-Dawley rat, male, plasma; intravenous, 1 mg/kg): 6.5 mL/min/kg
